Published values of several laboratories.
Each numbered part is a random draw from the data of one study; scales do not carry over between parts. Positions count from the first letter of the parent shown.

Sample 1
Target: Ras GTPase-activating protein-binding protein 1, RRM domain (G3BP1, Homo sapiens, UniProt Q13283)
UniProt Q13283, sequence (whole entry, looked up): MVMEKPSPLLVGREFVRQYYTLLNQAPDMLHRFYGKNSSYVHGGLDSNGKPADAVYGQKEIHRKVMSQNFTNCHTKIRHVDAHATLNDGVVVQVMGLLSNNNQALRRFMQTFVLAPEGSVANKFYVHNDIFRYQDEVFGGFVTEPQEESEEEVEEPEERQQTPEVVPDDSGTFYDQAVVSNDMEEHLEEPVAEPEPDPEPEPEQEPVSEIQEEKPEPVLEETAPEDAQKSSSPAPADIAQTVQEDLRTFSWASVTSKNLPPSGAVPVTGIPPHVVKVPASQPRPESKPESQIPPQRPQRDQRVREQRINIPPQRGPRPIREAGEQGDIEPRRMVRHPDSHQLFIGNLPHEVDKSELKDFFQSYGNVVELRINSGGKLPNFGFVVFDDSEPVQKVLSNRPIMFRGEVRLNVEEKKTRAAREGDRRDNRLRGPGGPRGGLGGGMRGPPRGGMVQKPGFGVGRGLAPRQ
Method: RNA Bind-n-Seq
Molecule type: RNA
Medium: in vitro
Tested at: 1 µM
Notes: whole 134-nt RNA, ends assumed
Together with: 150 mM KCl
Reference: input library
Direction: higher = stronger binding
Constant ends, left off below: GGGAGUUCUACAGUCCGACGAUC … UGGAAUUCUCGGGUGUCAAGG
Sequence	log2 enrichment
UGGGAGGUGGAUUUUGUUUAUUUUUUUAGCUCAUUUUCAGGGGUGGGAAUUUUUUUUUAAUAUGUGUCAUGAAUAAAGUUGUUUUUGAAA	2.11
UUGAACAUCUGCAGGAAAAGAGGCGAGAGGGCACUUUGAGAGUGGAUACCUACACUCUAGUGCAGCCUGAGGCAGAAGACCAUGUUGAGA	-0.139
AGUCCUGUGCUACACAUCGUAUGUACCGAAUCGGCCCCCGGGGCCCCCGGCCCCCGGAAAGUAUUAUGUUACGCCGUUCGGAUCUGCACU	-0.426
AGUCCUGUGCUACACAUCGUAUGUACCGAAUCGGGGUGGGGUUUUUUUGGGGUGGGGAAAGUAUUAUGUUACGCCGUUCGGAUCUGCACU	1.19
GUCCUGUGCUACACAUCGUAUGUACCGAAUCAAACCCCCAAAUUUAAAUUUUUUUAAAAAAGUAUUAUGUUACGCCGUUCGGAUCUGCAC	-0.575
UGGCCCUGGUGGCAUGCGGGGAGGCAGAGGUGGCCUCAUGGAUCGUGGUGGUCCCGGUGGAAUGUUCAGAGGUGGCCGUGGUGGAGACAG	0.903
GCAGGAAGUAAAAACAAAUGGAAAUGCUUCGGAUAGUGGCAGGGGUGGGGGUUGCUAAGGAAAGGGUGGUAUGGGAGUGGGUAAAGAGUU	1.51
CCUCAAGUCCUGUGCUACACAUCGUAUGUACCGAAUCGGCCGGCCGGCCGGGAAAGUAUUAUGUUACGCCGUUCGGAUCUGCACUUCCAG	-0.646
UGGGAGGUGGAUUUUGUUUAUUUUUUUAGCUCAUUUCCAGGGGUGGGAAUUUUUUUUUAAUAUAUGUCAUGAAUAAAGUUGUUUUUGAAA	1.54

Sample 2
Target: RNA binding protein fox-1 homolog 2, RRM domain, GST-SBP tag (RBFOX2, Homo sapiens, UniProt O43251-10, residues 100-194)
Method: RNA Bind-n-Seq
Molecule type: RNA
Medium: in vitro
Tested at: 365 nM
Notes: natural RNA segment, single round, ends assumed
Reference: no-protein control
Direction: higher = stronger binding
Constant ends, left off below: GGGAGUUCUACAGUCCGACGAUC … UGGAAUUCUCGGGUGCCAA
Target sequence (chain): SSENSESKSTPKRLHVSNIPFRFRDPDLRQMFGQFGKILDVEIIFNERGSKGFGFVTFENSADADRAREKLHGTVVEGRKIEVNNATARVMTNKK
Sequence	RBNS enrichment (R)
AUCAGAAGACAUUGGAAAGAGGGAUUCCCUUUGGUGUUUGGUCUUCUACUUAGAAAAACCUAUUGCAGUUAGUUUAUCUUGUAGUAUUCAUCUUUGUAUUCUGAAGAUAA	0.371
GAGCACUGGUCACAUUGAAGGUGCUGGGUAAGUGGUAGCUCUUGUUGCUUCCCGUUCAGCGUCACAUCUGCAGUGGAGCCUGAAAAGGCUCCACAUUAGGUCACCUGUGC	0.238
ACAAUGAGGACAGUGAGCUCCAGCCACUGUGGCCAUGGUGCCAUGUCCAUCCCCAGCCUCCCAGGGAAGUGCUGCGCUGUUUGUAUUUGUGGUCUGGGCUUUUCUGCCUA	0.401
UGCUUUCUUGGUUUUUGAGAGUAAUUGUGUAAUUGUAGAGGGAGAAAUCCAAUUCUAACCUAAGAACUGGGAUUCUUCUGUCAUCUUGUAAACCGUAUAUUGAAAAAAAC	0.373
AGUGGCACAAUCUCGGCUCACUGCAGCCUCCGCCUGCCGGGUCAAGCGAUUCUCCUACCUCAGCCUCCUCAGUAGCUGAGAUUACAGGCAUGCACCACCAUGCCCGGCUA	0.333
UCAUUUAACUUGGCUCACUUCUCUUCAGACUUGGGUAGAAGUGCAGAGCCACAGAAUUGCUUUCCUUCCCCGCCUUUGACAUGAGGCCUUCAGUAAAGAGCUACAGAACA	0.414
GAAGACCUUUCUAGGGGGCCUGGUUCUGGACCCGCUACCACUGGCCUCAAGACUCUUUUGCCUCAGUCAAGACUGUUAUAUGUAGCUGUUGUCUUUCCUGUCCCAACCUA	0.308
CAGAGUGCCUAAGAGAAACCCUUGCACCUGGGAGCGCUGCUUGGCUCUAUCUCUACAACAUUUAAUGAAUUUCUUGUAAACCACUUUGAGAUACAUUGUUUUGGAAAUUC	0.551

Sample 3
Target: Centromere-binding protein 1, full length, His-tagged (CBF1, Saccharomyces cerevisiae, UniProt P17106, residues 1-351)
UniProt P17106, sequence (whole entry, looked up): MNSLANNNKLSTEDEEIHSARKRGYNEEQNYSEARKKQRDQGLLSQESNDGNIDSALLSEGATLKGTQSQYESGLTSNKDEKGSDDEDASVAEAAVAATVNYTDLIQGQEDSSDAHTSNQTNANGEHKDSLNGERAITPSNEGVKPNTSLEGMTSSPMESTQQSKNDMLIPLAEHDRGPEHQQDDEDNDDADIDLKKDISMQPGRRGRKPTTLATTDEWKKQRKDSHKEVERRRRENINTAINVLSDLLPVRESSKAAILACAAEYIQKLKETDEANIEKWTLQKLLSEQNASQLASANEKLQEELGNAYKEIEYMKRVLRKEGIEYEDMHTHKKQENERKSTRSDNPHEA
Method: competition protein-binding microarray
Molecule type: double-stranded DNA, one strand shown
Medium: in vitro
Tested at: 2 µM
Notes: whole 60-bp probe, lowest competitor level
Together with: Pho4 competitor, 0.05 µM
Direction: higher = stronger binding
Constant ends, left off below: … GTCTTGATTCGCTTGACGCTGCTG
Sequence	fluorescence intensity
TCGCAGATGTTGCCCAGCCTGATCCAGCTCGTATTA	54 a.u.
AAATTACTAAGTTGTCTAGTGGGTGACGCCGTATGA	62.3 a.u.
ACCAAAAGACCAGAGCTCGTGATGGTCGGCTGCACC	137 a.u.
TATTGTGTCGCCTCGACCGTGATGGTTAGTTCCTAT	80.9 a.u.
CGGTGGTATAGAAATGACGTGCCAGGCATAAGGTGA	56.7 a.u.
TCCACCAACGATGGGTCCGTGACGAATGGTTCAACG	95.1 a.u.
TATTTTCTCAGCCGTCACGTGCGATAAAAAAGTCAA	7780 a.u.
TCAGCTCTTAGATGTAATGTGACGGCAGCCATTTTT	87.3 a.u.
CTTTCCCGATCTTTTCACGTGGCTTTAGCACATTTG	905 a.u.
CACTTCATACATGGCTACGTGGGTAACAAGGCCGCT	65.8 a.u.
GGAGAAGGATTAGATCTCGTGCCGAACGACAGCAAG	189 a.u.
CGAGCCTCTGAAAAGCACGCTCTAATAATTTTACAT	85 a.u.
CTTCTGTAAATTTTTCACGTGGGCTGACGCGCCCCG	749 a.u.
TGGTCAGACGCAGCGGGCGTGCTTTTGGACTGCTTG	52.2 a.u.
AAAGCGGTAATTTGCCTAGTGGGTGCAGATATCTAT	89.7 a.u.
ATAAAAGAATGCCATCACGTGTTTCCAATCCATTCG	3400 a.u.
CGGGGTTAAGTTTGCTTCGTGGGTGGCTTGCAGCAG	62.6 a.u.
AAAGCGGTAATTTGGAAGGTGGGTGCAGATATCTAT	73.4 a.u.
TGGTCTTTGAACAAGATCATGCCATTCTGGGCTGGC	72.9 a.u.

Sample 4
Target: CCNB1, cyclin fold, Cln2 fusion (human)
Method: yeast growth competition, sequencing
Medium: yeast
Notes: weak parent motif
Reference: not given
Direction: higher = stronger binding
Starting sequence: USP37 docking peptide (human); PSAKRSLGFLPQP
Substitution	normalised enrichment score
PAAKRSLGFLPQP [S2A]	0.295
PSAKRSLGFLPQA [P13A]	-0.0645
PSAKASLGFLPQP [R5A]	0.151
PSAKRSLGFLAQP [P11A]	-0.155
PSAKRSLGFAPQP [L10A]	0.0733
ASAKRSLGFLPQP [P1A]	0.159

Excerpt of the above (sample 2):
Sequence	RBNS enrichment (R)
ACAAUGAGGACAGUGAGCUCCAGCCACUGUGGCCAUGGUGCCAUGUCCAUCCCCAGCCUCCCAGGGAAGUGCUGCGCUGUUUGUAUUUGUGGUCUGGGCUUUUCUGCCUA	0.401
UGCUUUCUUGGUUUUUGAGAGUAAUUGUGUAAUUGUAGAGGGAGAAAUCCAAUUCUAACCUAAGAACUGGGAUUCUUCUGUCAUCUUGUAAACCGUAUAUUGAAAAAAAC	0.373
AGUGGCACAAUCUCGGCUCACUGCAGCCUCCGCCUGCCGGGUCAAGCGAUUCUCCUACCUCAGCCUCCUCAGUAGCUGAGAUUACAGGCAUGCACCACCAUGCCCGGCUA	0.333
UCAUUUAACUUGGCUCACUUCUCUUCAGACUUGGGUAGAAGUGCAGAGCCACAGAAUUGCUUUCCUUCCCCGCCUUUGACAUGAGGCCUUCAGUAAAGAGCUACAGAACA	0.414
GAAGACCUUUCUAGGGGGCCUGGUUCUGGACCCGCUACCACUGGCCUCAAGACUCUUUUGCCUCAGUCAAGACUGUUAUAUGUAGCUGUUGUCUUUCCUGUCCCAACCUA	0.308
